Measured values from different studies.
Each line is one published result; not all experiments were run side by side. Numbers after ± are the reported error.
Cell line: MOLT-4

SMILES = CC(=O)OC[C@H]1O[C@@H](Sc2sc(C(=O)c3ccc(Br)cc3)c(N)c2-c2nc3ccccc3s2)[C@H](OC(C)=O)[C@@H](OC(C)=O)[C@H]1OC(C)=O; method = SRB; concentration = 10 µM; time = 48 h; measurement = growth; value = 79.3%
SMILES = COc1ccc2c(c1)/C(=N\Nc1nnc3n1N=C(c1ccccc1)CS3)C(=O)N2; effect on = cell growth or viability; method = SRB; concentration = 10 µM; measurement = inhibition; value = 51%
SMILES = CN(C)CC#Cc1ccc(OCCCc2sc(N3CCc4cccc(C(=O)Nc5nc6ccccc6s5)c4C3)nc2C(=O)O)c(F)c1; effect on = cell growth or viability; method = ATP luminescence; time = 48 h; measurement = EC50; value = 130 nM
SMILES = CC1(C)CCC(c2ccc(Cl)cc2)=C(CN2CCN(c3ccc(C(=O)NS(=O)(=O)c4ccc(N[C@H](CCN(CCOCCOCCOCCNc5cccc6c5C(=O)N(C5CCC(=O)NC5=O)C6=O)C5CCCC5)CSc5ccccc5)c(S(=O)(=O)C(F)(F)F)c4)cc3)CC2)C1 (stereo partly drawn); effect on = cell growth or viability; method = MTS; time = 48 h; measurement = IC50; value = 560 nM
SMILES = CC(=O)OCC1(O)C(Nc2cccc(C(C)=O)c2)C(N)C(NC(=O)N(C)C)(C(C)OC(C)=O)C1(C)O (stereo not drawn); effect on = cell growth or viability; method = SRB; measurement = GI50; value = 330 nM
SMILES = CC(=O)OC[C@H]1O[C@@H](Sc2sc(C(=O)c3ccc(C)cc3)c(N)c2-c2nc3ccccc3s2)[C@H](OC(C)=O)[C@@H](OC(C)=O)[C@H]1OC(C)=O; method = SRB; concentration = 10 µM; time = 48 h; measurement = growth; value = 70%
SMILES = CC1(C)CCC(CN2CCN(c3ccc(C(=O)NS(=O)(=O)c4ccc(NCC5COCCO5)c([N+](=O)[O-])c4)c(N4CCCOc5nc6[nH]ccc6cc54)c3)CC2)=C(c2ccc(Cl)cc2)C1 (stereo not drawn); effect on = cell growth or viability; method = ATP luminescence; time = 24 h; measurement = IC50; value = 627 nM
SMILES = CCCCCCCCC=CCCCCCCCC(=O)OCC1OC(n2ccc(N)nc2=O)C(F)(F)C1O (stereo not drawn); effect on = cell growth; with = NBMPR 100 µM; measurement = IC50; value = 51 ± 33 nM
SMILES = CC/C=C\C/C=C\C/C=C\C/C=C\C/C=C\C/C=C\CCC(=O)Nc1ccn(C2OC(CO)C(O)C2(F)F)c(=O)n1 (stereo not drawn); effect on = cell growth or viability; method = SRB; measurement = GI50; value = 69.2 nM
SMILES = Cc1sc2c(c1C)C(c1ccc(Cl)cc1)=N[C@@H](CC(=O)NCC(=O)N1CCC3(CCC(C(=O)N4CCN(C(=O)c5cc(Cc6n[nH]c(=O)c7ccccc67)ccc5F)CC4)CC3)CC1)c1nnc(C)n1-2; effect on = cell growth or viability; method = ATP luminescence; time = 72 h; measurement = EC50; value = 4.6 nM
SMILES = COc1ccc(C2=Nn3c(NN=C4C(=O)N(Cc5ccccc5)c5ccc(Cl)cc54)nnc3SC2)cc1; effect on = cell growth or viability; method = SRB; concentration = 10 µM; measurement = inhibition; value = 30%
SMILES = CC(Cc1ccc(Cl)cc1)=C(c1ccc(Cl)cc1)c1ccc(OCCN(C)C)cc1; effect on = cell growth or viability; measurement = GI50; value = 4010 nM

For quick reference, copied from above:
SMILES = CC/C=C\C/C=C\C/C=C\C/C=C\C/C=C\C/C=C\CCC(=O)Nc1ccn(C2OC(CO)C(O)C2(F)F)c(=O)n1 (stereo not drawn); effect on = cell growth or viability; method = SRB; measurement = GI50; value = 69.2 nM
